Assay results of several laboratories.
Each numbered part is a random draw from the data of one study; scales do not carry over between parts.

Sample 1
Target: Histone acetyltransferase KAT6A, winged helix 2, GST fusion (KAT6A, Homo sapiens, UniProt Q92794, residues 85-181)
Technique: protein binding microarray
Molecule type: double-stranded DNA, one strand shown
Matrix: in vitro
Concentration: not given
Setting: 8-mer, flanks averaged, mean of 2 arrays, mostly near background
Relative to: not given
Reading: higher = stronger binding
Quantity: E-score
Residues (chain): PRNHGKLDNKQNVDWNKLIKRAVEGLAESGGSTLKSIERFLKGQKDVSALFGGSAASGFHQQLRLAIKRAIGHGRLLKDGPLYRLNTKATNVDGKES
ACTCGAGA: -0.0281
ATTTGTTC: 0.0505
GGACGCGA: 0.0241
CACCTATC: -0.186
AAGGAGCT: -0.189

Sample 2
Target: RNA binding protein fox-1 homolog 2, RRM domain, GST-SBP tag (RBFOX2, Homo sapiens, UniProt O43251-10, residues 100-194)
Technique: RNA Bind-n-Seq
Molecule type: RNA
Matrix: in vitro
Concentration: 365 nM
Setting: natural RNA segment, single round, ends assumed
Relative to: no-protein control
Reading: higher = stronger binding
Quantity: RBNS enrichment (R)
Shared flanks, not repeated: GGGAGUUCUACAGUCCGACGAUC … UGGAAUUCUCGGGUGCCAA
Residues (chain): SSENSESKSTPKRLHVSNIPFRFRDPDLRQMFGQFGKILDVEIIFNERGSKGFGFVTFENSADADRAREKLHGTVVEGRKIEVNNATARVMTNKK
CCUCACAGAGUGGCCCGUAUCACUCCCCACGUCUGUAGACACAUGGCUUUGAAUGAUUACUAUUUGGUCUGUGUGCUACUAACAGAUAAUAAACGAUCACCAGGAAACUU: 0.658
AAAUUUUUGUACAAUAAAAUAUCCUGGAUUUGAUCCUGAAGGAAACUAGUAAGAUCAGAUUUUUGGGUCAUGUCUGUUGUAUUUUCAGUAAUGUGAUUUCAGAUGGUCAU: 0.351
UGCCCUCGGCUGGAGUUCCUUUCUCACCCCUGUGAUUUGGAGGUGUGGAGAAGGGGAAGGGAGGGACAGCUCACUGGUUCCUUCUGCAGUACCUCUGUGGUUAAAAAUGG: 0.548
AAGGUUCUUUGAAGAAUUUUGGGGCAGGGCAUCAGAUUAGAGUUUUAAAAUUUGAGUAUUUUGGAUAUCAGUGUUCCUCAUGAAGAUAUACAUGGAUAUUCAAUUUUGAU: 0.411
CUGCCCGAGAAUCAGCUUGAAUUCCCACUUCUGCUUGUUGGCCCCAGCUCUGGCUUUGCAUCCUUACUCUCAUGCCCAGUUGCUUAGAGAGAACGGGAGAACAGGUCUAA: 1.11
UUGUGUGCCUUCACACCCGCCUACAGCCCCACCUCACCAUCAAGCGCUGAGCCAAUGCGGGUGUGGCUGGCCCUGAGUUCCUGAGUCAGCUCCUUGCCAGGGCCAGAGCU: 0.308

Sample 3
Substance: PhoQ, residues 284 288 289 292 302 303 TTCLQL
Technique: Sort-seq
Measured: YFP reporter
Matrix: E. coli
Setting: PhoQ-PhoP variant library
Together with: 10 µM Mg2+
Relative to: high Mg2+ state
Reading: higher = stronger signaling
Quantity: fold induction
PhoP, residues 12 14 15 18 19 STHWV (Escherichia coli, UniProt P23836): 9.88
PhoP, residues 12 14 15 18 19 QYCSL (Escherichia coli, UniProt P23836): 2.71
PhoP, residues 12 14 15 18 19 SHWTV (Escherichia coli, UniProt P23836): 13.3

Sample 4
Target: Sal-like protein 4, full length isoform B (SALL4, Homo sapiens, UniProt Q9UJQ4-2, residues 1-616)
Technique: universal PBM
Molecule type: double-stranded DNA, one strand shown
Matrix: in vitro
Concentration: not given
Setting: 8-mer, flanks averaged, mean of replicates
Reading: higher = stronger binding
Quantity: E-score
Target sequence (chain): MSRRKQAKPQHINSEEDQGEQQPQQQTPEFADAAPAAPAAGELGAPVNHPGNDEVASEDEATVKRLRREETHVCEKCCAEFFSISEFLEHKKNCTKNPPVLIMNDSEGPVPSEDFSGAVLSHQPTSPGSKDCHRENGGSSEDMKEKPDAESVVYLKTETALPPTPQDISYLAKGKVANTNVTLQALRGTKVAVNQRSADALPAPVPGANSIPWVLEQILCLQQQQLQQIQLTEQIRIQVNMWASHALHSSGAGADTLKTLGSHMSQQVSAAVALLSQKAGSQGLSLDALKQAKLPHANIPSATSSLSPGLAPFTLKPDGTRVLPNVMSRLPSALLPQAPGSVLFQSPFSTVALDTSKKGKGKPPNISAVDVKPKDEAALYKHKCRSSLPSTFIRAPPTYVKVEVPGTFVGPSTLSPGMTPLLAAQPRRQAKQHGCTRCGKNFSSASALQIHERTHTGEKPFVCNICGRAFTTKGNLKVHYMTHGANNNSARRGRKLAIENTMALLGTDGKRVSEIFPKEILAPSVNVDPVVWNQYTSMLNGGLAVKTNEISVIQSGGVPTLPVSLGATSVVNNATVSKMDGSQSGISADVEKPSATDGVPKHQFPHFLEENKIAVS
AGGCTCGC: -0.309
TAGGTACA: 0.0932
CACAGGGG: -0.199
AGGTAAAA: 0.147
CGTAGCTC: -0.0707
AAAATTCC: 0.168

For quick reference, copied from above (sample 4):
AGGCTCGC: -0.309
TAGGTACA: 0.0932
AAAATTCC: 0.168
